Measurements of several laboratories.
Parts stem from different laboratories: compare values within a part only.

Block 1
Target: Interferon regulatory factor 7, full length, phosphomimetic (IRF7, Homo sapiens, UniProt Q92985, residues 1-503, S471D/S472D/S475D/S476D/S477D/S483D/S484D/S487D)
Chain of UniProt Q92985 (whole entry, unmodified, looked up): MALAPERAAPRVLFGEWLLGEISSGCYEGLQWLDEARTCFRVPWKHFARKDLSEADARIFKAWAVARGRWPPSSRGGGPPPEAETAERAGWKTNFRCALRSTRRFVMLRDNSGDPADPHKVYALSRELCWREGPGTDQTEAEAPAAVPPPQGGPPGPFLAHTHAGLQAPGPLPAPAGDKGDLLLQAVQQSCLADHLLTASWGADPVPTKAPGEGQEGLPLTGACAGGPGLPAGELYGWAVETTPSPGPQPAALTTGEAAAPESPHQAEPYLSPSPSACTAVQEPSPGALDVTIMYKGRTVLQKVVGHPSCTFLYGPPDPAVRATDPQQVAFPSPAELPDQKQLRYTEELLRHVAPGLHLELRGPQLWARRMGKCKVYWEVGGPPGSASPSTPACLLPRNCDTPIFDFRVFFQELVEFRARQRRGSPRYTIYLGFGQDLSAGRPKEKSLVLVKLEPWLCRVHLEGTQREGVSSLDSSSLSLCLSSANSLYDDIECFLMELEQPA
Technique: protein-binding microarray
Form: double-stranded DNA, one strand shown
Sample: in vitro
Tested at: 2200 nM top
Notes: 60-bp whole probe
Added: salmon DNA 0.4 mg/ml
Relative to: random background probes
Direction: higher = stronger binding
All sequences stand within: GCCTAGCAC … GTCTTGATTCGCTTGACGCTGCTG
Oligonucleotide | fitted relative affinity
TTAGGACTGGTTTTCCTTTAGTGCTAG | 1.28 z-score
GACGGACTGGGGCTGGGGACGTGCTAG | -0.42 z-score
TTAGGTTACGGGTTTCGGTTAGTGCTA | 4.38 z-score
TTAGGTGTCCTTTTCCTTTAGTGCTAG | 1.39 z-score
ATTTTTATCAAATGTGGGATTGTGCTA | 0.0718 z-score

Block 2
Target: Sal-like protein 4, full length isoform A (SALL4, Homo sapiens, UniProt Q9UJQ4, residues 1-1053)
Chain of UniProt Q9UJQ4 (whole entry, looked up): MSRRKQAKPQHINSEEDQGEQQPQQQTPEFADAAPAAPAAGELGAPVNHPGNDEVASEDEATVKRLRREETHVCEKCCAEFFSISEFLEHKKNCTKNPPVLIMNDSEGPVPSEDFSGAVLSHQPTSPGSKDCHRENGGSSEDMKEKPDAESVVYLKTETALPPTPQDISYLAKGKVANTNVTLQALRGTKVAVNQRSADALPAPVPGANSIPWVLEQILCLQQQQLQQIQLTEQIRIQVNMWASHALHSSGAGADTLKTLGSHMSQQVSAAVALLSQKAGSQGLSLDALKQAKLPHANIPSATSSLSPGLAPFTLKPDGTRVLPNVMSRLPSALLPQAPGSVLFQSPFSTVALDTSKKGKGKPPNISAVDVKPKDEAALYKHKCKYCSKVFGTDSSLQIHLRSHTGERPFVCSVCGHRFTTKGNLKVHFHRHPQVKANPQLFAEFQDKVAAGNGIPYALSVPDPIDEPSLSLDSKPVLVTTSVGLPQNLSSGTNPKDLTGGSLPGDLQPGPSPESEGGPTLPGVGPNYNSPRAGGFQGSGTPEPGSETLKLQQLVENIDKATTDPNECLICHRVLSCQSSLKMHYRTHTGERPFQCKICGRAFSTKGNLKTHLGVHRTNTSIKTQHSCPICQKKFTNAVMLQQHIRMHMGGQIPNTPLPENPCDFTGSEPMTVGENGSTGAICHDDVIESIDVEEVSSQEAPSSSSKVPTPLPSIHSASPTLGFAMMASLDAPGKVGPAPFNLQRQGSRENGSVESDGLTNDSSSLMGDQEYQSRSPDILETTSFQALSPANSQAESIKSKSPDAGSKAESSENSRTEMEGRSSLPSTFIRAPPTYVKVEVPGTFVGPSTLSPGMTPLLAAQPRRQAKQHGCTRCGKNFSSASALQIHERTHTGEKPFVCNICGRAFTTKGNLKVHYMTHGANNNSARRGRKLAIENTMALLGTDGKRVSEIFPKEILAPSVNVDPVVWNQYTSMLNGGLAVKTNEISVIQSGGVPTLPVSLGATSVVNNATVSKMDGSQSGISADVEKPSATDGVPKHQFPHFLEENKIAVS
Technique: universal PBM
Form: double-stranded DNA, one strand shown
Sample: in vitro
Tested at: 600 nM
Notes: 8-mer, flanks averaged, mean of replicates
Direction: higher = stronger binding
Oligonucleotide | E-score
AAGATAAC | 0.177
CGATAAAG | 0.13
CAGCGCGA | -0.232
GCTGGGGA | -0.274

Block 3
Target: Histone acetyltransferase KAT6A, both winged helices, GST fusion (KAT6A, Homo sapiens, UniProt Q92794, residues 1-181)
Technique: protein binding microarray
Form: double-stranded DNA, one strand shown
Sample: in vitro
Tested at: not given
Notes: 8-mer, flanks averaged, mean of 2 arrays, mostly near background
Relative to: not given
Direction: higher = stronger binding
Residues (chain): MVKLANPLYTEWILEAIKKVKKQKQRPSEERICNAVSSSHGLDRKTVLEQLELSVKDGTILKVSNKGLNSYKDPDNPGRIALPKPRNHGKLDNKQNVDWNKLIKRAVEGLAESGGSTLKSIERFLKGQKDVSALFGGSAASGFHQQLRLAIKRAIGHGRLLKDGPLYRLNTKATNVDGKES
Oligonucleotide | E-score
AGGGTCGA | -0.085
GGATGCCC | -0.00428
CTCAGAAG | -0.139
ATACTTGA | -0.322
CCCGTCCC | 0.14

Mixed results
Substance | target | test | system | setting | scale | measurement | result
PhoQ, residues 284 288 289 292 302 303 ASSHFY | PhoP, residues 12 14 15 18 19 DLLYY (Escherichia coli, UniProt P23836) | Sort-seq, measured: YFP reporter | E. coli | PhoQ-PhoP variant library, added: 10 µM Mg2+ | relative to: high Mg2+ state, higher = stronger signaling | fold induction | 2.19

Some of these lines once more (block 3):
Oligonucleotide | E-score
AGGGTCGA | -0.085
CTCAGAAG | -0.139
